Results pooled from the literature.
Each numbered part is a random draw from the data of one study; scales do not carry over between parts. Positions count from the first letter of the parent shown.
UniProt Q01959, sequence (whole entry, looked up): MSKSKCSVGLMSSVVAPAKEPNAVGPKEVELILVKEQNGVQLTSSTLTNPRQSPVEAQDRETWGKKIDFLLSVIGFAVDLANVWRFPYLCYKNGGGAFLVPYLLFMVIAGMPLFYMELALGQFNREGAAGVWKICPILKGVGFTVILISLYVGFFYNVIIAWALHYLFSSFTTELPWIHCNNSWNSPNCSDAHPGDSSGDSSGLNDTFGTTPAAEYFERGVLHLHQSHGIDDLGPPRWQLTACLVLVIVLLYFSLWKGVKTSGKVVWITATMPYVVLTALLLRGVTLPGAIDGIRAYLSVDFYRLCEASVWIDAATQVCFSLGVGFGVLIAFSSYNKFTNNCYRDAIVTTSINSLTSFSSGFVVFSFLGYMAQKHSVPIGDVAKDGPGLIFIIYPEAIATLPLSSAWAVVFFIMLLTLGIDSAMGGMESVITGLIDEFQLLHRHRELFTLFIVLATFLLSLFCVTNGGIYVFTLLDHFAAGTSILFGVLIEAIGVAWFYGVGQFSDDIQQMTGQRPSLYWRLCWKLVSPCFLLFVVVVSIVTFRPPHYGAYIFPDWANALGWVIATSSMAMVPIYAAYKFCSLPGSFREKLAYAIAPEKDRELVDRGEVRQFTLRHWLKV

Series 1
Target: Probable WRKY transcription factor 33, N-terminal DNA-binding domain (WRKY33, Arabidopsis thaliana, UniProt Q8S8P5, residues 169-264)
Technique: DNA-protein interaction ELISA
Molecule type: double-stranded DNA, one strand shown
Matrix: in vitro, bacterial lysate
Concentration: not given
Notes: whole dsDNA probe, crude lysate protein
Baseline: highest signal in screen
Reading: higher = stronger binding
Construct (chain): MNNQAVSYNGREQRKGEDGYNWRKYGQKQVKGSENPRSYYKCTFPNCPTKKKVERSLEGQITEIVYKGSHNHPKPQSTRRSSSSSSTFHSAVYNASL
`AAAAAATTACTTCTCCCTTCCTTTGCAAAA` has a relative absorbance of 25.2 % of maximum.
The relative absorbance of `AAAAAATATCCTATTCTAATTTATATAAAA` is reported as 17 % of maximum.
The relative absorbance of `AAAAAACCCGCCGTCGTGATTATCACAAAA` is reported as 22.1 % of maximum.
`AAAAAACTCTTAAGGAAAGTTCCGACAAAA` has a relative absorbance of 25.7 % of maximum.
The relative absorbance of `AAAAAAGTTGCCGACGATTGCGGGTTAAAA` is reported as 22.8 % of maximum.
With `AAAAAATGATGTTGGCGCATTTAAACAAAA` the relative absorbance was 21.7 % of maximum.
For `AAAAAAAACTGTCGCCCCCGGCTGGCAAAA`, the relative absorbance was 21.8 % of maximum.
The relative absorbance of `AAAAAAGGCTGTGGCCAATGTTCGTAAAAA` is reported as 21.1 % of maximum.

Series 2
Target: Transcription factor SOX-2, HMG box (Sox2, Mus musculus, UniProt P48432, residues 41-119)
UniProt P48432, sequence (41-119, looked up): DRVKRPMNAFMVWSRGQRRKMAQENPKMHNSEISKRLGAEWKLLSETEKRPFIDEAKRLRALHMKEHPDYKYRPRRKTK
Technique: Spec-seq
Molecule type: double-stranded DNA, one strand shown
Matrix: in vitro
Concentration: not given
Notes: whole probe, mean of replicates
Baseline: not given
Reading: lower = stronger binding
Shared flanks, not repeated: GAGTCGTCTCGTCAGCAC … CCGTAGAGCACTCAGGTC
`CATCGAG` — result for “relative binding energy”: 0.421 ln ratio.
`CAGCGTT` — result for “relative binding energy”: 1.08 ln ratio.
`TTACGTT`: “relative binding energy” 0.608 ln ratio.
`CATCCAT`: “relative binding energy” 0.46 ln ratio.
Under “relative binding energy”, `CATTCAT` is recorded as -2.06 ln ratio.
Under “relative binding energy”, `TAATGTT` is recorded as -0.442 ln ratio.
For `CATTTAC`, “relative binding energy” read -0.648 ln ratio.
For `CATGGAC`, “relative binding energy” read -0.0548 ln ratio.

Series 3
Target: CCNE2, cyclin fold, Cln2 fusion (human)
Technique: yeast growth competition, sequencing
Matrix: yeast
Notes: strong parent motif
Baseline: not given
Reading: higher = stronger binding
Parent: viral docking peptide; YKVKRRLVFGADD
`K2N` — result for “normalised enrichment score”: 6.11.
For `F9H`, “normalised enrichment score” read 0.683.
Under “normalised enrichment score”, `K2F` is recorded as 4.4.
For `K4R`, “normalised enrichment score” read 5.8.
`D12R`: “normalised enrichment score” 4.24.
`K4P`: “normalised enrichment score” 1.2.
For `V3P`, “normalised enrichment score” read 1.44.
`Y1A` — result for “normalised enrichment score”: 5.31.
For `F9C`, “normalised enrichment score” read 0.57.
Under “normalised enrichment score”, `D12Y` is recorded as 5.15.
`A11H`: “normalised enrichment score” 5.63.
For `D12F`, “normalised enrichment score” read 5.2.
`R5I` — result for “normalised enrichment score”: 0.632.

Other studies, line by line
For `COc1cc(N[C@@H]2CCCC[C@]2(O)C(F)(F)F)ccc1F`, the inhibition was -17.1% (Sodium-dependent dopamine transporter (SLC6A3, Homo sapiens, UniProt Q01959); ligand displacement; 10 µM).

Excerpt of the above (series 3):
For `K4R`, “normalised enrichment score” read 5.8.
`D12R`: “normalised enrichment score” 4.24.
`K4P`: “normalised enrichment score” 1.2.
For `V3P`, “normalised enrichment score” read 1.44.
`Y1A` — result for “normalised enrichment score”: 5.31.
